Results from different studies.
Parts stem from different laboratories: compare values within a part only. “And” joins repeats or separate records; there may be more than shown.
Chain of UniProt O75914 (whole entry, looked up): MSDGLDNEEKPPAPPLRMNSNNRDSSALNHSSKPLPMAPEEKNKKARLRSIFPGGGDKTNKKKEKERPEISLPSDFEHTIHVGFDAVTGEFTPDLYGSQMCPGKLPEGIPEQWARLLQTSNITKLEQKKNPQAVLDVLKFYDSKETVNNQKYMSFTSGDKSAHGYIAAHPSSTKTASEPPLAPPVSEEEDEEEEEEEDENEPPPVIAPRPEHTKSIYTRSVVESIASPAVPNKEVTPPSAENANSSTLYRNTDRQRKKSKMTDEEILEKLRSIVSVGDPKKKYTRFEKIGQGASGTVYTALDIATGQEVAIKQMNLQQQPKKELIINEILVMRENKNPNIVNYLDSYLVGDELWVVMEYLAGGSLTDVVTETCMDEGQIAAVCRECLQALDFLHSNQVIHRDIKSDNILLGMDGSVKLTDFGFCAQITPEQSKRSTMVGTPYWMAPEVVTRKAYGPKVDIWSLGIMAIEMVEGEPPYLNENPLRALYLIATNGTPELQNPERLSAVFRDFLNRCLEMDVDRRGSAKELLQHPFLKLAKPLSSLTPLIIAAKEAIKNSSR
Chain of UniProt O75582 (whole entry, looked up): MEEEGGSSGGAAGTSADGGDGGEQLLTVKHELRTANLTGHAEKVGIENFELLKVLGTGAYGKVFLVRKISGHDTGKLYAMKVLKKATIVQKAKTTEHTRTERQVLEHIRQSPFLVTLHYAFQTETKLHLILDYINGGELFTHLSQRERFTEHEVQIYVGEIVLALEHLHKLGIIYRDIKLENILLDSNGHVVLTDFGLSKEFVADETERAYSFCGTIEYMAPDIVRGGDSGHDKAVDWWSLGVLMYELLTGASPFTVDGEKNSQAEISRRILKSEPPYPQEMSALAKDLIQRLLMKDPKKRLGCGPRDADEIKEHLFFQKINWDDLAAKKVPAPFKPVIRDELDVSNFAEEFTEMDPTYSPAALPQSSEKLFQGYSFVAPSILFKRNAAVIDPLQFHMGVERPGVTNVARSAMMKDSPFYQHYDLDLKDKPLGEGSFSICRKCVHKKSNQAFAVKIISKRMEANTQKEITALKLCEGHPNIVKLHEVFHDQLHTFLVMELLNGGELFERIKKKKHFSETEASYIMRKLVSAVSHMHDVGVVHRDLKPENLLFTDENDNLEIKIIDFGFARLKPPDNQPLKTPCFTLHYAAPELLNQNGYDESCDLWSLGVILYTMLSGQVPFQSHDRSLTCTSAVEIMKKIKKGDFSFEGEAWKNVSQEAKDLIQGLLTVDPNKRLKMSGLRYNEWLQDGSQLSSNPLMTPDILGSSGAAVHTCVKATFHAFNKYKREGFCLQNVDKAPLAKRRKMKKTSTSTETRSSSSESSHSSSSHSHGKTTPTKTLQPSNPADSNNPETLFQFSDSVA
Chain of UniProt Q00526 (whole entry, looked up): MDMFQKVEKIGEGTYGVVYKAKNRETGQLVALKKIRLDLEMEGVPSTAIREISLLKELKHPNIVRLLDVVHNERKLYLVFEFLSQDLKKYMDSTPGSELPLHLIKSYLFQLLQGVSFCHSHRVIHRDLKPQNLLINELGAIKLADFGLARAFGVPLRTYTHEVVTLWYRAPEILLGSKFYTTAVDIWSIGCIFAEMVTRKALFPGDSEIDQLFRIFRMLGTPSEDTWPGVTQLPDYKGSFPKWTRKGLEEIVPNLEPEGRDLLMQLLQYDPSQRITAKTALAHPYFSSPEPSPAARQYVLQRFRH
Chain of UniProt P48736 (whole entry, looked up): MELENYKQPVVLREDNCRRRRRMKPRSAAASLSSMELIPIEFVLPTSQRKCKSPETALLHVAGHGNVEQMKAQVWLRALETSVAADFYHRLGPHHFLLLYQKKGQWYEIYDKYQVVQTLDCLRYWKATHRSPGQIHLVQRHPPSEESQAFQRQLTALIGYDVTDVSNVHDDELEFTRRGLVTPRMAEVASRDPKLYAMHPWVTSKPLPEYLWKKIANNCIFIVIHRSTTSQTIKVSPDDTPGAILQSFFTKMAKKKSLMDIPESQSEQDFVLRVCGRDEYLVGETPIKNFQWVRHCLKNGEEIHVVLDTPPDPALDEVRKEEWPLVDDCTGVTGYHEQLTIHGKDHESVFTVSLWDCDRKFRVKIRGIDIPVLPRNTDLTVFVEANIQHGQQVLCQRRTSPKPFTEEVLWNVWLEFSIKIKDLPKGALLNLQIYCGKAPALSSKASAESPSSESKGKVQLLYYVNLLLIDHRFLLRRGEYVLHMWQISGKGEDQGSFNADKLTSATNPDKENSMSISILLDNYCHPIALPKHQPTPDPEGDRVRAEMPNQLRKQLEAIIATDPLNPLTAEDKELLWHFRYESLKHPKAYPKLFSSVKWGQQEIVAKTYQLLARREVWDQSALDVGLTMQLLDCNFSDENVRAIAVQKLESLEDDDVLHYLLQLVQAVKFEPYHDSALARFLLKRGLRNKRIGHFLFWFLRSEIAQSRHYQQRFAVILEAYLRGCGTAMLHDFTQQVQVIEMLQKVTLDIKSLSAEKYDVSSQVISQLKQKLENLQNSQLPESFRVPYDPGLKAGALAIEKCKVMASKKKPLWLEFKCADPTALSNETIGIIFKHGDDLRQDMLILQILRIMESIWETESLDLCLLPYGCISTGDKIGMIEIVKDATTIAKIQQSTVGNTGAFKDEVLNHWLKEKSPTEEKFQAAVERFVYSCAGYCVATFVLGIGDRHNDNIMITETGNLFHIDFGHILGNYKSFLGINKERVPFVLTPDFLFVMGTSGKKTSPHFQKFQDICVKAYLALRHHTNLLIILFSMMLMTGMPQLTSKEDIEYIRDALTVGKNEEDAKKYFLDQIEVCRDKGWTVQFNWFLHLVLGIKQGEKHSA
Chain of UniProt Q9Y2K2 (whole entry, looked up): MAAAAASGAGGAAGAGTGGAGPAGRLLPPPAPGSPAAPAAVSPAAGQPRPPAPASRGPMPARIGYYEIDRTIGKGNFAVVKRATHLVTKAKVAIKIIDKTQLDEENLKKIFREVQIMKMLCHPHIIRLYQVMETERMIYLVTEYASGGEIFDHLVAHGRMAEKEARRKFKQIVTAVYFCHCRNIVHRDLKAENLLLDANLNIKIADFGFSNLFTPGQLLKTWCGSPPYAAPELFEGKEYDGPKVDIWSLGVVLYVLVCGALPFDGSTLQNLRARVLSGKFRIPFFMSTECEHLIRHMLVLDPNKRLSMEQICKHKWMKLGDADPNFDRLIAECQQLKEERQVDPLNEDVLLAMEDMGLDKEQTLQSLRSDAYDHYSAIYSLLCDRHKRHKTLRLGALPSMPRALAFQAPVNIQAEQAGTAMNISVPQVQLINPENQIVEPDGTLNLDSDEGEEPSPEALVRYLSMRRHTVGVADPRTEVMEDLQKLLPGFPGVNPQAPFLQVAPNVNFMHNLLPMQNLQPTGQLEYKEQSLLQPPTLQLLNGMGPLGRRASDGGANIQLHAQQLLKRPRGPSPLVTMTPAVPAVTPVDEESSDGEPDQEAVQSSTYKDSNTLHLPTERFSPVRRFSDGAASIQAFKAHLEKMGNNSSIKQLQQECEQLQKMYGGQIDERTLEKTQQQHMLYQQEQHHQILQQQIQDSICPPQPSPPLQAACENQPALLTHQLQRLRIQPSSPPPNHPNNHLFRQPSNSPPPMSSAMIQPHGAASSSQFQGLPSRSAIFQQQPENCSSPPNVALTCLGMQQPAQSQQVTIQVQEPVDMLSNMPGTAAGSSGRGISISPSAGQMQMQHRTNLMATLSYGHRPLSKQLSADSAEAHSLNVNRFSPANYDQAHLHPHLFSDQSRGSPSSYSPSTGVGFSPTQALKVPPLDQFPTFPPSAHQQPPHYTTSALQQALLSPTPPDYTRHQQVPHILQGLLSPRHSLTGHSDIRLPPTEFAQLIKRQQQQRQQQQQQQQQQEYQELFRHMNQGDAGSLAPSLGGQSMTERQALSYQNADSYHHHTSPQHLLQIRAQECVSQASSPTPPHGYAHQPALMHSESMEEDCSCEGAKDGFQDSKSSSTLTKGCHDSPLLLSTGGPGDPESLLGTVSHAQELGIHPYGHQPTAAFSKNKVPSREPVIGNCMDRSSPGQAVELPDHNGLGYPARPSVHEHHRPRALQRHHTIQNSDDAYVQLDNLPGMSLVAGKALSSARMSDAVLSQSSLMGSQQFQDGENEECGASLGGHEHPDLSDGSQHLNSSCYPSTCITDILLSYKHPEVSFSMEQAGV
Chain of UniProt O15264 (whole entry, looked up): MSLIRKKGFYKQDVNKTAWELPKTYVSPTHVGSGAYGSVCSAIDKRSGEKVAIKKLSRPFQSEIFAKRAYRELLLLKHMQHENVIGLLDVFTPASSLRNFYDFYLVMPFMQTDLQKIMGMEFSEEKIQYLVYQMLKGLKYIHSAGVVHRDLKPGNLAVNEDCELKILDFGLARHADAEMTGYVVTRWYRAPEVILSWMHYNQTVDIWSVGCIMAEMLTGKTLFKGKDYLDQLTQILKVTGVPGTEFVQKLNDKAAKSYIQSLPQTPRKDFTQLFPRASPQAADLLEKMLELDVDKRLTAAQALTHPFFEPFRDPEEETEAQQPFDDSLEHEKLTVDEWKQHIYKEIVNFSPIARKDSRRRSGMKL

Set 1
SMILES: O=C1CCC(N2Cc3cc(C4CCN(Cc5ccccc5)CC4)ccc3C2=O)C(=O)N1 (centres unmarked)
Matrix: plasma
It gave 77.5 ng/mL and 97.8 ng/mL for plasma concentration (male ICR mice; intravenous, 1 mg/kg, 1 h).
The plasma concentration was 17.8 ng/mL (male ICR mice; intravenous, 1 mg/kg, 4 h).
The plasma concentration was 26.6 ng/mL and 42.6 ng/mL (ICR mouse, male; oral, 3 mg/kg, 4 h).
It gave 73.7 ng/mL and 30 ng/mL and 45.2 ng/mL for plasma concentration (ICR mouse, male; oral, 3 mg/kg, 0.083 h).
It gave “not detected” for plasma concentration (male ICR mice; oral, 3 mg/kg, 24 h).
The plasma concentration was 62.1 ng/mL (Sprague Dawley rat, male; intravenous, 1 mg/kg, 1 h).
It gave 80.2 ng/mL and 74.4 ng/mL for plasma concentration (Sprague Dawley rat, male; oral, 3 mg/kg, 2 h).

Set 2
Compound: Cn1nc(C(F)(F)F)cc1-c1cnc(N2CCc3cc(S(=O)(=O)Nc4c(F)cc(Cl)cc4F)cc(N4CCCC4=O)c32)nc1
Observed: cell-free assay
Method: competition with immobilised ligand
Tested at: 1 µM
For MAPK13 (Homo sapiens, UniProt O15264): remaining binding read 100%.
MTOR (Homo sapiens, UniProt P42345) — remaining binding: 78%.
MAPK15 (Homo sapiens, UniProt Q8TD08) — remaining binding: 78%.
ITK (Homo sapiens, UniProt Q08881) — remaining binding: 97%.
The remaining binding was 73% (STK26 (Homo sapiens, UniProt Q9P289)).
It gave 91% for remaining binding (CDK3 (Homo sapiens, UniProt Q00526)).
It gave 77% for remaining binding (PAK3 (Homo sapiens, UniProt O75914)).
It gave 90% for remaining binding (Non-receptor tyrosine-protein kinase TYK2, JH2 (TYK2, Homo sapiens, UniProt P29597)).
For Ribosomal protein S6 kinase alpha-5, N-terminal kinase domain (RPS6KA5, Homo sapiens, UniProt O75582): remaining binding read 86%.
RIOK2 (Homo sapiens, UniProt Q9BVS4) — remaining binding: 89%.
RPS6KB1 (Homo sapiens, UniProt P23443) — remaining binding: 78%.
The remaining binding was 88% (PIK3CG (Homo sapiens, UniProt P48736)).
It gave 93% for remaining binding (MAP3K10 (Homo sapiens, UniProt Q02779)).
It gave 99% for remaining binding (Ribosomal protein S6 kinase alpha-1, N-terminal kinase domain (RPS6KA1, Homo sapiens, UniProt Q15418)).
SIK3 (Homo sapiens, UniProt Q9Y2K2) — remaining binding: 94%.

Set 3
Host: mouse
Matrix: microsomes or S9
Tested at: 2 µM
Time: 0.5 h
With `O=S(=O)(Nc1ccc(N2CCOCC2)cc1)c1ccc(-c2nnc(C3CCC3)o2)o1` the remaining compound was 3.09%.
With `N#Cc1cnn2c(O)cc(Cc3ccccc3)nc12` the remaining compound was over 100%.
For `CC(C)Cn1c(=O)c(N2CCN(S(=O)(=O)Cc3ccccc3)CC2)nc2ccncc21`, the remaining compound was 12.6%.
`CCN(CC)CCCC(C)NCc1c(C)nn(-c2ccc(F)cc2)c1C` (centres unmarked) gave a remaining compound of 62.5%.
`CN(C(=O)c1c[nH]nn1)C1c2ccccc2-c2ccccc21` gave a remaining compound of 90.6%.
With `COc1c2c(cc3c1OCO3)CCN(C)C(C(C)=O)=C2` the remaining compound was 6.08%.
With `Cn1c(N)c(C(=O)Cn2cc(C(F)(F)F)cc(Cl)c2=O)c(=O)n(C)c1=O` the remaining compound was 79.8%.

Set 4
Target: Serine/threonine-protein kinase PLK1 (PLK1, Homo sapiens, UniProt P53350)
Chain of UniProt P53350 (whole entry, looked up): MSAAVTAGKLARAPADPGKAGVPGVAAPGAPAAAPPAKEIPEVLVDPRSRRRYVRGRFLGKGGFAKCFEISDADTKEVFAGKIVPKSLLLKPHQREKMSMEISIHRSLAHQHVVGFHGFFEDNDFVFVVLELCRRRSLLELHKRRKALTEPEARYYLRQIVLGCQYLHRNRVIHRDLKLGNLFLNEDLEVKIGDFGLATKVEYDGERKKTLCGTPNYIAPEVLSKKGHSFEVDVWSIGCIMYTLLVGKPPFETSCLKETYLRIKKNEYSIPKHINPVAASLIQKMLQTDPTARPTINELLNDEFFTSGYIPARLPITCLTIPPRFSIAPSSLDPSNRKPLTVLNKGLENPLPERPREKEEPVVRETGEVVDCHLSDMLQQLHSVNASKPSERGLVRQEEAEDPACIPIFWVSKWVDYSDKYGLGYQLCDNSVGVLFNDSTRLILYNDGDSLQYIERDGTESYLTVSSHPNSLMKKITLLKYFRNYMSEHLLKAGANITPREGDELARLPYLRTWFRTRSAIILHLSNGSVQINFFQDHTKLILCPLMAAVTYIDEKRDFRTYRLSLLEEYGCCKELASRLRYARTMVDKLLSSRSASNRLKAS
Observed: enzyme activity
Mode: inhibitor
Tested at: 0.5 µM
Relative to: control
`CC(C)[C@H](CO)Nc1nc(Nc2cc(N)cc(Cl)c2)c2ncn(C(C)C)c2n1` has a remaining activity of 55%.
`Nc1ncnc2n[nH]c(Nc3ccc(F)cc3)c12` gave a remaining activity of 99.9%.
`Cn1sc(=O)n(Cc2ccccc2)c1=O` has a remaining activity of 97.2%.
For `COc1ccc(OC)c2c(=S)c3ccccc3[nH]c12`, the remaining activity was 93.6%.
`Nc1[nH]nc2nc3ccccc3nc12` gave a remaining activity of 94.5%.
`O=C(Nc1cccc(Nc2cc(Nc3cccc(C(F)(F)F)c3)ncn2)c1)C1CC1` gave a remaining activity of 98.6%.
`Cc1ccc(Nc2nccc(N(C)c3ccc4c(C)n(C)nc4c3)n2)cc1S(N)(=O)=O` has a remaining activity of 99.5%.
`Cc1cccc(-c2[nH]c(C(C)(C)C)nc2-c2ccc3c(c2)OCO3)n1` has a remaining activity of 105%.
The remaining activity of `COc1cc2ncnc(Nc3ccc(Oc4ccccc4)cc3)c2cc1OC` is reported as 96.4%.
For `N#CC(C#N)=C(N)/C(C#N)=C/c1ccc(O)cc1`, the remaining activity was 60.8%.
`CCOC(=O)c1c(C)[nH]c(/C=C2\C(=O)Nc3ccccc32)c1C` has a remaining activity of 107%.
With `COc1ccc(CNC(=O)Nc2ncc([N+](=O)[O-])s2)cc1` the remaining activity was 102%.
For `COc1cc2nccc(Oc3ccc(NC(=S)NC(=O)c4ccccc4C)cc3)c2cc1OC`, the remaining activity was 97.9%.
`COc1cc2ncnc(Nc3ccc(F)c(Cl)c3)c2cc1OCCCN1CCOCC1` has a remaining activity of 97%.
The remaining activity of `O=C1NC(=O)C(c2cn(CCCn3ccnc3)c3ccccc23)=C1Nc1ccccc1` is reported as 99.5%.

Excerpt of the above (set 4):
`O=C(Nc1cccc(Nc2cc(Nc3cccc(C(F)(F)F)c3)ncn2)c1)C1CC1` gave a remaining activity of 98.6%.
For `COc1ccc(OC)c2c(=S)c3ccccc3[nH]c12`, the remaining activity was 93.6%.
The remaining activity of `O=C1NC(=O)C(c2cn(CCCn3ccnc3)c3ccccc23)=C1Nc1ccccc1` is reported as 99.5%.
`CC(C)[C@H](CO)Nc1nc(Nc2cc(N)cc(Cl)c2)c2ncn(C(C)C)c2n1` has a remaining activity of 55%.
